Assay results gathered from unrelated publications.
Every numbered part comes from another study and shows a few of its results, in no order.

Block 1
Target: Prothrombin, mature alpha-thrombin (F2, Homo sapiens, UniProt P00734)
Method: aptamer microarray, sandwich
Molecule type: DNA with 2'F-ANA
Sample: in vitro
Concentration: 200 nM
Setting: whole 15-mer aptamer, many near background
With: Cy3 exosite-II aptamer, 400 nM
Direction: higher = stronger binding
Strand: GGTTGGTGTGGTTGG
Modification	mean fluorescence intensity [a.u.]
2'F-ANA at 2 4 7 8 9 10 14 15	67.4
2'F-ANA at 4 7 8 12 13 15	464
2'F-ANA at 3 4 6 8 9 13 15	395
2'F-ANA at 2 5 6 7 8 9 10 12	89.3
2'F-ANA at 2 8 9 13 15	349
2'F-ANA at 1 4 6 7 9 11 12 14	52.8
2'F-ANA at 1 2 4 6 7 9 11 12 14	51.7
2'F-ANA at 2 4 7 10 12 13 14	64.4
2'F-ANA at 3 4 5 6 7 10 12 13 14	48.2
2'F-ANA at 1 2 3 4 6 8 11 12 13 14 15	69.2
2'F-ANA at 2 3 4 7 8 9 13 14 15	257
2'F-ANA at 1 3 4 9 10 11 13 14	48.9
2'F-ANA at 1 3 5 7 8 10 11 14	45.7
2'F-ANA at 2 3 4 5 7 8 14	68.9
2'F-ANA at 2 3 4 5 7 8 9 11 12	174
2'F-ANA at 1 2 4 6 8 9 11 13 15	73.5

Block 2
Target: Ras GTPase-activating protein-binding protein 1, full length (G3BP1, Homo sapiens, UniProt Q13283)
UniProt Q13283, sequence (whole entry, looked up): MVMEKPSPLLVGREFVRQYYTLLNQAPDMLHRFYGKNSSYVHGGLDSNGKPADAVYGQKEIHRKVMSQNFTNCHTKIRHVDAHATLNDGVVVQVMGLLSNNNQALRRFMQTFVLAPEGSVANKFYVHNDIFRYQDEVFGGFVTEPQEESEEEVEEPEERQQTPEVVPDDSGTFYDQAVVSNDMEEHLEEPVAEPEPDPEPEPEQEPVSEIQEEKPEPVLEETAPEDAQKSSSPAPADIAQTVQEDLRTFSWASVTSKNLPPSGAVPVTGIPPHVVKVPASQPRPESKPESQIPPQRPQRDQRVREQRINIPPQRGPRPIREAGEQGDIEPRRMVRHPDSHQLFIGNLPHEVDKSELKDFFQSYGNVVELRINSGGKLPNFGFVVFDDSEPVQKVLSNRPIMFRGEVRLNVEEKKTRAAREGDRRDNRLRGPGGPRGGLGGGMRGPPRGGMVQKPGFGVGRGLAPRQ
Method: RNA Bind-n-Seq
Molecule type: RNA
Sample: in vitro
Concentration: 200 nM
Setting: whole 134-nt RNA, ends assumed
With: 150 mM LiCl
Reference: input library
Direction: higher = stronger binding
Each molecule: 7-deaza-guanosine replaces G
Strand	log2 enrichment
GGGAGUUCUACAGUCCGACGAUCUAACUUUAGAGGAGGAUCUGAUGGAUAUGGCAGUGGACGUGGAUUUGGGGAUGGCUAUAAUGGGUAUGGAGGAGGACCUGGAGGUGUCAAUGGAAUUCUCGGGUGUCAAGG	-0.354
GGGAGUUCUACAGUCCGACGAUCUCAAGUCCUGUGCUACACAUCGUAUGUACCGAAUCGGGUUUGGGUGGGAAAGGGAAAGUAUUAUGUUACGCCGUUCGGAUCUGCACUUCCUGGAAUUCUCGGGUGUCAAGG	-0.942
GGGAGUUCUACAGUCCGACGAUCUCAAGUCCUGUGCUACACAUCGUAUGUACCGAAUCGGUUGGGGUUGGGUUGGGGAAAGUAUUAUGUUACGCCGUUCGGAUCUGCACUUCCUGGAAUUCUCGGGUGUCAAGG	-0.0549
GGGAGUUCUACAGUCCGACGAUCAGUCCUGUGCUACACAUCGUAUGUACCGAAUCGGGGUGGGGAAAAAGGGGUUUGGGGAAAGUAUUAUGUUACGCCGUUCGGAUCUGCACUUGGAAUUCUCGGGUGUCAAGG	-0.791
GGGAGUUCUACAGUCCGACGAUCACCAUGCAGGCGGGCAUCUUUGGGAAGUGGGGCAAGGGGGGGAUAGGGAGGGGGGUAACACUUUGGGAACAGGUGGUCCCAGGUCGUUUCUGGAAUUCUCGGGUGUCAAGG	0.0964
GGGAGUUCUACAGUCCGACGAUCGUGCUACACAUCGUAUGUACCGAAUCGGGGUUUUUUUGGGGUUUUUUUGGGGAAAAAAAGGGGAAAGUAUUAUGUUACGCCGUUCGGAUCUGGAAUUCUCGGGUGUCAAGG	1.23
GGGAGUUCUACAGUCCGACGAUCCACAGACAACACGCACCCACAAAAACACAGAGGGAAGGGGUUGGGAUGGGGACAGGGUGCACAGCAGGGCGGGGUAGGACCCCAGCCCCUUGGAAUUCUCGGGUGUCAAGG	-0.394
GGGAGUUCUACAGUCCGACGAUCGUCCUGUGCUACACAUCGUAUGUACCGAAUCGGGGUUUUUGGGGUGGGGUUUUUGGGGAAAGUAUUAUGUUACGCCGUUCGGAUCUGCACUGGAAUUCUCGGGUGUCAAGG	0.36

Block 3
Target: RNA binding protein fox-1 homolog 2, RRM domain, GST-SBP tag (RBFOX2, Homo sapiens, UniProt O43251-10, residues 100-194)
Method: RNA Bind-n-Seq
Molecule type: RNA
Sample: in vitro
Concentration: 365 nM
Setting: natural RNA segment, single round, ends assumed
Reference: no-protein control
Direction: higher = stronger binding
Construct (chain): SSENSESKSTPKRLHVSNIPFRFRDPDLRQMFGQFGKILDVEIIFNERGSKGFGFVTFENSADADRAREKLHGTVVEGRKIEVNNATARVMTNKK
Strand	RBNS enrichment (R)
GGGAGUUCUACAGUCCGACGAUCACUGGAACUUGAACUGAUUCACAUCUCAUUUUUCCGUAAAAAUGAUUUCAGUAGCACAAGUUAUUUAAAUCUGUUUUUCUAACUGGGGGAAAAGAUUCCCACCCAAUUCAUGGAAUUCUCGGGUGCCAA	0.227
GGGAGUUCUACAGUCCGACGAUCUGUCGCCUGGCCCCACGUGUGGUGUUUUGUGUGUUCCUGCCUGGCCAAGGGAGGUGCCAAUGCUGGGCUUACCAUAGUCCAGGAAGAAUAUGAGGACUAGGGGCACACAAUGGAAUUCUCGGGUGCCAA	0.46
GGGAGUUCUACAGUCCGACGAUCCUCUGUUUUUACCCAUGGCAGACAUUGCUAAUCAAUGGCAGCUCUAUUUCACUGAGUCUGGAUAAGGUUUCAGAGUUCAAAUGCUUGACGUUGGCACUUAACAUGAAAGCUGGAAUUCUCGGGUGCCAA	0.404
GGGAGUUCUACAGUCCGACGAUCGGCGUGCGCCACCUCCGCCCAGCUCAGAACUUCACUUUUAAAAGUAAUCUGUUCCCAGUGUGGUAUCUCAAAAUUGUGCUGAGAUUAUCUUAGUAUAUGUAUUGGAUUCCUGGAAUUCUCGGGUGCCAA	0.296
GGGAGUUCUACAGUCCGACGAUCUCCAUUCUCACCUCUAUUUUGAGCUUCAGUGCUUUAUUUCAGUAUGAGGAAAAACAACAACAAACUGAAGUGCGCUUUCCGUCCUUUCAAAGGACAACUGUCGGGAAGGGUGGAAUUCUCGGGUGCCAA	0.424
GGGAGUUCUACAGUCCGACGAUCAUAUAAAAUGUAACCACUGAACAUUUGACAACUUUGUUGCAUUAUCAUUUUUAAAAAAAGAUGAAGCAUUUCAAAAUCUUGUUAACCUGGUUAUCUCUUGGUAUCUCUCCUGGAAUUCUCGGGUGCCAA	0.365
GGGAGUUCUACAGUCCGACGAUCUCCUCGCAUGUAAUCAGGGAGCACGCAUGCACGUUGAGUGGGUGCAUCCUGCCUAAGCUGUGUCCCUGAGUGGUGGCUUUCCCUCCUGUCACGUGACAUCCCAUUCACUCUGGAAUUCUCGGGUGCCAA	23.7
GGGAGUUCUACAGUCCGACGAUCGGGCCGGGUUGUAUCAGGAGGAUUCAACCCCGCUAACAUGUGGGGUGCCCUCUGUAGGCCUUCACACAGGGAAGGAAGCCCUACCCUUUCAACUCCUGUUGGAGUGAGAGUGGAAUUCUCGGGUGCCAA	0.298

Mixed results
Molecule	target	test	system	conditions	scale	quantity	value
PhoQ, residues 284 288 289 292 302 303 AMDMFI	PhoP, residues 12 14 15 18 19 IQFRS (Escherichia coli, UniProt P23836)	Sort-seq, item: YFP reporter	E. coli	PhoQ-PhoP variant library, with: 10 µM Mg2+	reference: high Mg2+ state, higher = stronger signaling	fold induction	1.2
